Published values pooled from the literature.
Compare with care: the assays were run in different laboratories. Numbers after ± are the reported error.
dcp2 with Dcp1: mRNA decapping complex subunit 2, with Dcp1 (dcp2, Schizosaccharomyces pombe, UniProt O13828)
Sequence of UniProt O13828 (whole entry, looked up): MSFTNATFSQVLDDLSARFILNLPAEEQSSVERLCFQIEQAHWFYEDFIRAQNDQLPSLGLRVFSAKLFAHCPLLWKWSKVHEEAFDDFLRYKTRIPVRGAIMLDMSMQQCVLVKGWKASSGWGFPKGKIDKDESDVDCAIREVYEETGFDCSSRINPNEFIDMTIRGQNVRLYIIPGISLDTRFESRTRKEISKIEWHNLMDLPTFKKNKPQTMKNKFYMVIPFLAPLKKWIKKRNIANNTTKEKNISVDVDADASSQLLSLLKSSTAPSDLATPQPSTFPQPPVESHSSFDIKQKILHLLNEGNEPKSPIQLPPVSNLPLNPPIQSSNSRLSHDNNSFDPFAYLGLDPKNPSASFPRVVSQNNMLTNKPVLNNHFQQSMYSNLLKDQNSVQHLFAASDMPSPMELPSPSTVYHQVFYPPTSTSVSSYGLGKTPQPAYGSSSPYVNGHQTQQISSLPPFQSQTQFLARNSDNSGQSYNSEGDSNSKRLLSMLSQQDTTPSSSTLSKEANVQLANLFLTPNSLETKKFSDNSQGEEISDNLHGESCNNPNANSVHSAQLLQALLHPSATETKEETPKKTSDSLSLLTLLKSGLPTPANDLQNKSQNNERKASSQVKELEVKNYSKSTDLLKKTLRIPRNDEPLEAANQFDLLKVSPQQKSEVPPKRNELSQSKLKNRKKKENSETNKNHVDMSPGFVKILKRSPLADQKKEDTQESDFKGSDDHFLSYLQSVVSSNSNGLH
ache: Acetylcholinesterase (ache, Electrophorus electricus, UniProt O42275)
Sequence of UniProt O42275 (whole entry, looked up): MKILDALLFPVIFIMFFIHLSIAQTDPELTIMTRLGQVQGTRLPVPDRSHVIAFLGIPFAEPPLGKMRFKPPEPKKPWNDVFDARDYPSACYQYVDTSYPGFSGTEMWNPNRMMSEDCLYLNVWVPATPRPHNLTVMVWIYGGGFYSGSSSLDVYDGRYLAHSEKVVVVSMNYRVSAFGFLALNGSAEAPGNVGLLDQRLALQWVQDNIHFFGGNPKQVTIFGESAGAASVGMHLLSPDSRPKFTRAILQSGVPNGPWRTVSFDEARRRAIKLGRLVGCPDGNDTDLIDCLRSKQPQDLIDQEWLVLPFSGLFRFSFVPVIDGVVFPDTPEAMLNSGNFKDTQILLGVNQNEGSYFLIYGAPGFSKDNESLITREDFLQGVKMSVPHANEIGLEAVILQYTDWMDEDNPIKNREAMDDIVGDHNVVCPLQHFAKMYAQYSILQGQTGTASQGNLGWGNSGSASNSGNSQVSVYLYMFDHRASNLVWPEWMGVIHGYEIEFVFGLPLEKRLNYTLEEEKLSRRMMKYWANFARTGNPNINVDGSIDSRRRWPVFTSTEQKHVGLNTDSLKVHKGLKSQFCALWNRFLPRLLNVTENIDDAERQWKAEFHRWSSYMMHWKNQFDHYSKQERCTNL
NR3C1: Glucocorticoid receptor (NR3C1, Homo sapiens, UniProt P04150)
Sequence of UniProt P04150 (whole entry, looked up): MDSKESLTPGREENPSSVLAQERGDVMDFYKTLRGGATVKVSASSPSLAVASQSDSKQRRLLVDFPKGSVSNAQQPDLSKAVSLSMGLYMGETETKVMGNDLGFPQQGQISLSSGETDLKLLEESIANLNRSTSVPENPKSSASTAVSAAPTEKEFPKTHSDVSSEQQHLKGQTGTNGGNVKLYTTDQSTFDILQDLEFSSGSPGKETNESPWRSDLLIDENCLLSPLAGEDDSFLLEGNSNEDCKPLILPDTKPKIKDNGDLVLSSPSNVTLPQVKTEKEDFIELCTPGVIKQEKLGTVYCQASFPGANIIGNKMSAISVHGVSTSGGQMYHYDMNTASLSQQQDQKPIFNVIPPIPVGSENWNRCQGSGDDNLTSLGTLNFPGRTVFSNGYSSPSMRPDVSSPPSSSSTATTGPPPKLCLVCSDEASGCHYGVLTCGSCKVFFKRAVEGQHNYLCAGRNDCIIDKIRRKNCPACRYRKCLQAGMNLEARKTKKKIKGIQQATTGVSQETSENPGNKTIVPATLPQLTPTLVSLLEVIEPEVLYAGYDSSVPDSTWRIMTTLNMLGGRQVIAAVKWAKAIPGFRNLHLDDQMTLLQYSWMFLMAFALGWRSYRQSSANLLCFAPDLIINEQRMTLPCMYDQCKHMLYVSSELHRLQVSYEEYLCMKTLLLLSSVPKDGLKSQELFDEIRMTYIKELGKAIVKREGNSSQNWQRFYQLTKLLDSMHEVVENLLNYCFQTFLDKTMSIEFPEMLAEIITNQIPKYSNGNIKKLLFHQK
Sequence of UniProt Q13224 (whole entry, looked up): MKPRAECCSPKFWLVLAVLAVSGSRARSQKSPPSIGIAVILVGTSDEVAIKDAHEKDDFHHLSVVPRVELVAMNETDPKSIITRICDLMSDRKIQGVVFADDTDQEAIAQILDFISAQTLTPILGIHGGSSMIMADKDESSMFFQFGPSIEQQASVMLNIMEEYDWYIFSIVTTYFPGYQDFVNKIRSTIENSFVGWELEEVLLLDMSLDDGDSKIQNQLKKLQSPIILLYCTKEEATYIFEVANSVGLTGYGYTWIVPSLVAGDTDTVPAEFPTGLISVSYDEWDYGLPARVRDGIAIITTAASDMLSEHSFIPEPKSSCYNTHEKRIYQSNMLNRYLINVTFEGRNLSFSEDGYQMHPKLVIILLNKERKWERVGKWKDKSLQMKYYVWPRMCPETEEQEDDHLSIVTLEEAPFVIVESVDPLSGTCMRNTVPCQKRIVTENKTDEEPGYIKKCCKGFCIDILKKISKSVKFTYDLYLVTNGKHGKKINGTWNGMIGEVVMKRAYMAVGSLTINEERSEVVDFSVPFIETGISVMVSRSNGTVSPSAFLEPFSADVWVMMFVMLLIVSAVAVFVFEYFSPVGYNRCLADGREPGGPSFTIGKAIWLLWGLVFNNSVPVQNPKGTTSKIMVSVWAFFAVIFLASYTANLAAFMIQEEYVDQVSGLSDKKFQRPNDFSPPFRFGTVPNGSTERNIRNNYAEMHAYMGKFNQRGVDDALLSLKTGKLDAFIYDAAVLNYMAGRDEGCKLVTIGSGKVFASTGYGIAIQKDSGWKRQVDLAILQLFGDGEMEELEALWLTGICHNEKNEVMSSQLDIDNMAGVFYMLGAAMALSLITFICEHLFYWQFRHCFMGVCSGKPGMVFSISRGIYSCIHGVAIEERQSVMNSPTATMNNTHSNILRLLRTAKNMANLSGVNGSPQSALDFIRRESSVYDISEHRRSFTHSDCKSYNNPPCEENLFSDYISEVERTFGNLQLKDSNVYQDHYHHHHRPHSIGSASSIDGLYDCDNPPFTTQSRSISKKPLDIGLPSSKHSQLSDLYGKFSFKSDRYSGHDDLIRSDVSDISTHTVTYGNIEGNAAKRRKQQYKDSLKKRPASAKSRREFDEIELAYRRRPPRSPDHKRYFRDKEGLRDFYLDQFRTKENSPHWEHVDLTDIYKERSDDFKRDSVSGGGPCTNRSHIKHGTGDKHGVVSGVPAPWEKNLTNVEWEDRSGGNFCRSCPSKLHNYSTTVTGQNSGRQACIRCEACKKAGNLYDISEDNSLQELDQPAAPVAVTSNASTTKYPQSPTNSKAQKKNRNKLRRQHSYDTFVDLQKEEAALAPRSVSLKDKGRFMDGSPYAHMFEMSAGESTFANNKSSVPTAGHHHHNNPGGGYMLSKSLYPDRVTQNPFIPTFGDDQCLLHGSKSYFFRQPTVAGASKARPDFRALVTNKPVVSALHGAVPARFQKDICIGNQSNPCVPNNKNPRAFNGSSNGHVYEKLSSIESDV
Sequence of UniProt P51817 (whole entry, looked up): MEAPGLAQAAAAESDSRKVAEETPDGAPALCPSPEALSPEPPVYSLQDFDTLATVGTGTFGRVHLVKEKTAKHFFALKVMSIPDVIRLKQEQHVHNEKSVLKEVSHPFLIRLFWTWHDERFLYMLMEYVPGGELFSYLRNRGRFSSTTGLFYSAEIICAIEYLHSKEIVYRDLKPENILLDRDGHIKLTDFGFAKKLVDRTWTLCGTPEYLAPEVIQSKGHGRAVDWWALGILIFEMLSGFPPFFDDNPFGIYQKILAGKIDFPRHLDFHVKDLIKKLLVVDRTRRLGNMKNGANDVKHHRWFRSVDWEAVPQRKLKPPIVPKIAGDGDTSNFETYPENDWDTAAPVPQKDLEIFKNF
Sequence of UniProt P53779 (whole entry, looked up): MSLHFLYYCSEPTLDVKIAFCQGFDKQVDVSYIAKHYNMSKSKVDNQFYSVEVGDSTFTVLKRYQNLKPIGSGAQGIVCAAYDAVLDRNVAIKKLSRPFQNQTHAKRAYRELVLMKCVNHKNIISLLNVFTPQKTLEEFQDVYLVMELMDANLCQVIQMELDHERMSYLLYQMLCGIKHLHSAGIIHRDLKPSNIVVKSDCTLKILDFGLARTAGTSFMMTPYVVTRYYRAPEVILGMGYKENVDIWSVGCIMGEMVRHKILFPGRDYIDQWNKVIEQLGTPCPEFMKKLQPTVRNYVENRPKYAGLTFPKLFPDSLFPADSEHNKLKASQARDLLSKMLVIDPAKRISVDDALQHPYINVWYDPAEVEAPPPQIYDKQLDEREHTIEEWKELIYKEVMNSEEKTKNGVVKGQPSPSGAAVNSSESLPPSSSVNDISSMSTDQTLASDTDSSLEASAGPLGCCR
Sequence of UniProt Q01726 (whole entry, looked up): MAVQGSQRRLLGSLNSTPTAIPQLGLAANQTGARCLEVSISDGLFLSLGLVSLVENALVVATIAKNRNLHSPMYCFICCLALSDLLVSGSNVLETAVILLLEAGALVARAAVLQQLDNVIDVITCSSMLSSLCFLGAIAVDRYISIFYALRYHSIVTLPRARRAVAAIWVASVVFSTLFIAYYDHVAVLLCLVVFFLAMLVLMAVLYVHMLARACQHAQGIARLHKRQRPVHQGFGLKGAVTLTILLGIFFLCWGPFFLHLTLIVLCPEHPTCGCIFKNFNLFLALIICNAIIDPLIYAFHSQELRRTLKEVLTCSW

SMILES	target	test	conditions	inhibition [%]
C[n+]1cn([C@@H]2O[C@H](COP(=O)([O-])OP(=O)(O)O)[C@@H](O)[C@H]2O)c2nc(N)nc(O)c21	dcp2 with Dcp1		200 µM, 0.25 h	8.5 ± 4
O=C1c2ccccc2CCCN1CCCCN1CCN(c2cccc(Cl)c2Cl)CC1	D(1B) dopamine receptor (DRD5, Homo sapiens, UniProt P21918)	radioligand binding	concentration not given, added: [3H]SCH23390	73.3
NCCc1ccc(F)cc1	ache	enzyme activity, inhibitor, Ellman	20 µM	49.3
O=C(O)c1ccccc1/C=N/Nc1nc(-c2ccccc2Cl)cs1	FYN isoform b	enzyme activity	1 µM	-7.6
CC(C)[C@H]1NC(=O)C[C@H]2/C=C/CCSSC[C@@H](NC1=O)C(=O)N[C@H](Cc1cccc3ccccc13)C(=O)NCC(=O)O2	Tyrosine-protein kinase Fyn (FYN, Homo sapiens, UniProt P06241)	enzyme activity, inhibitor	10 µM	4.8
O=S(=O)(F)CCc1cn(-c2cccc(Cl)c2)nn1	ache	Ellman	20 µM	37.4 ± 2.1
BP(=O)(OC[C@H]1O[C@@H](n2c[n+](C)c3c(O)nc(N)nc32)[C@H](O)[C@@H]1O)OP(=O)([O-])CP(=O)([O-])OP(B)(=O)OC[C@H]1O[C@@H](n2c[n+](C)c3c(O)nc(N)nc32)[C@H](O)[C@@H]1O (some centres unmarked)	dcp2 with Dcp1		200 µM, 0.5 h	40.9
CS(C)(=O)=Nc1ccc(-c2ccc(-c3nc4cc(O[C@@H]5CO[C@H]6[C@@H]5OC[C@H]6O)[nH]c4cc3F)cc2)cc1	cAMP-dependent protein kinase catalytic subunit PRKX (PRKX, Homo sapiens, UniProt P51817)	enzyme activity, inhibitor	10 µM	-2
CN(/N=C/c1ccccc1C(=O)O)c1nc(-c2ccccc2Cl)cs1	Mitogen-activated protein kinase kinase kinase kinase 3 (MAP4K3, Homo sapiens, UniProt Q8IVH8)	enzyme activity, inhibitor	1 µM	-15.2
BP(=O)(OC[C@H]1O[C@@H](n2c[n+](C)c3c(O)nc(N)nc32)[C@H](O)[C@@H]1O)OP(=O)([O-])OP(=O)([O-])OP(B)(=O)OC[C@H]1O[C@@H](n2c[n+](C)c3c(O)nc(N)nc32)[C@H](O)[C@@H]1O (single isomer, unassigned)	dcp2 with Dcp1		200 µM, 0.25 h	36.9
CC(=O)NC[C@@H]1[C@@H](O)C[C@H]2[C@H](O)C[C@@H](CO)N12	human placental β-N-acetylglucosaminidase		0.0428 µM, run 2, added: p-nitrophenyl GlcNAc	40.9
CN(C)c1ncnc2c1ncn2[C@@H]1O[C@H](CCl)[C@@H](NC(=O)[C@H](N)CSC(c2ccccc2)c2ccccc2)[C@H]1O	Aminopeptidase N (ANPEP, Homo sapiens, UniProt P15144)	enzyme activity, inhibitor, fluorescence	10 µM	38.9
CN[C@@H]1[C@H](O)[C@H](NC)[C@H]2O[C@]3(O)[C@H](O[C@@H]2[C@H]1O)O[C@H](C)C[C@H]3NC(=O)Cc1cc(Cl)ccn1	Gamma-aminobutyric acid type B receptor subunit 1 (GABBR1, Homo sapiens, UniProt Q9UBS5)		10 µM	1
CCN(CC)CCNC(=O)c1ccc(Nc2nccc3[nH]c(-c4cccc(OC)c4F)nc23)cc1	ache	enzyme activity, inhibitor, Ellman	5 µM	77.1
NCC1CC1	ache	enzyme activity, inhibitor, Ellman	20 µM	34.5
COc1ccc(F)cc1S(=O)(=O)Nc1cnc2c(c1)C(=O)NCCO2	Melanocyte-stimulating hormone receptor (MC1R, Homo sapiens, UniProt Q01726)	ligand displacement, radioligand	10 µM	-5
CN(C)[C@H]1C[C@@]23CC[C@@]4(O2)C(=CC[C@]2(C)[C@@H](c5ccc6ccncc6c5)CC[C@H]24)C=C3[C@@H](O)[C@@H]1O	Cyclin-dependent kinase 4 (CDK4, Homo sapiens, UniProt P11802)	ATP probe labelling, inhibitor, KiNativ profiling	0.1 µM	-0.5
N[C@H](C(=O)N1CCCC1)C1CCN(c2nccc3c(-c4ncc(Cl)cc4Cl)cccc23)CC1	GABA-A receptor alpha1	binding, radioligand binding	10 µM	-14
C[C@H](NCc1ccc(-c2ccc(C(F)(F)F)cc2)cc1)C(N)=O	Mitogen-activated protein kinase 10 (MAPK10, Homo sapiens, UniProt P53779)	cell-free assay, competition with immobilised ligand	1 µM	14
O=C(CN1CN(c2ccccc2)C2(CCN(C(=O)c3cnc4[nH]ncc4c3)CC2)C1=O)NCC(F)(F)F	1-phosphatidylinositol 3-phosphate 5-kinase (PIKFYVE, Homo sapiens, UniProt Q9Y2I7)	inhibitor	concentration not given	< 50
COC(=O)C(C)(COP(=O)(OC)OCCCCCCNC(=O)c1cc2ccccc2oc1=O)C(=O)CSC(C)=O (centres unmarked)	Retinal rod rhodopsin-sensitive cGMP 3',5'-cyclic phosphodiesterase subunit delta (PDE6D, Homo sapiens, UniProt O43924)	enzyme activity, inhibitor	5 µM	23.7
C/C(=N\OCCCN1CCCCC1)c1ccc(C(F)(F)F)cc1	Glutamate NMDA receptor; GRIN1/GRIN2B (GRIN1/GRIN2B, Homo sapiens, UniProt Q05586+Q13224)	ion current, antagonist, manual patch clamp	10 µM	19.1
Cc1cc(Nc2nc(C[C@@]3(C(=O)O)CCN(Cc4cccc(Cl)c4F)[C@H](C)C3)cc(C)c2F)[nH]n1	NR3C1	inhibitor	10 µM	71.3
O=S(=O)(F)CCc1cn(-c2ccc(Cl)c(Cl)c2)nn1	ache	Ellman	20 µM	40.5 ± 3.3
O=C(NC1CCN(c2ncnc3[nH]cnc23)CC1)c1cccc(NS(=O)(=O)c2ccc(C(F)(F)F)cc2)c1	Replicase polyprotein 1ab, nsp14 (Human coronavirus OC43, UniProt P0C6X6)	enzyme activity	0.01221 µM	6.41
CN[C@@H]1[C@H](O)[C@H](NC)[C@H]2O[C@]3(O)[C@H](O[C@@H]2[C@H]1O)O[C@H](C)C[C@H]3NC(=O)Cc1ccc(Cl)cn1	NR3C1	ligand displacement, radioligand	10 µM	10
